# Published values gathered from unrelated publications.
# Lines come from different studies, so protocols differ.
SMILES,target or system,test,test system,conditions,endpoint,result
Nc1nc(N)c2c(Cl)c(CNc3ccc(C(=O)O)cc3)ccc2n1,Mycobacterium tuberculosis,bacterial growth,H37Rv,,MIC90,0.03 µM
NC[C@@H](NC[C@@H]1CCCN1C[C@@H](CO)NC[C@@H](NCCC12CC3CC(CC(C3)C1)C2)c1ccccc1)c1ccccc1,Acinetobacter baumannii,bacterial growth,,"8 µM, fold shift of IC90, together with: amikacin",potentiation of amikacin,1 fold
CC(=O)Oc1ccc2nc3ccc(=O)cc-3oc2c1,Mycobacterium tuberculosis,,mc2 6206 clofazimine-resistant fbiC mutant,7 days,MIC90,> 256 µM
Nc1n[nH]c(=O)[nH]1,Aliivibrio fischeri,"bioluminescence, Microtox",,30 min,IC20,22400 µM
CC[C@H](C)[C@H](NC(=O)[C@H](C)NC(=O)[C@H](CCC(=O)O)NC(=O)[C@H](CCC(=O)O)NC(=O)[C@H](CC(C)C)NC(=O)[C@H](CCCCN)NC(=O)[C@H](CCCCN)NC(=O)[C@H](CCSC)NC(=O)[C@H](CCC(=O)O)NC(=O)[C@H](Cc1ccc(O)cc1)NC(=O)[C@H](CCC(=O)O)NC(=O)[C@H](CC(C)C)NC(=O)[C@H](CC(=O)O)NC(=O)[C@H](CC(C)C)NC(=O)[C@H](Cc1ccccc1)NC(=O)[C@@H](NC(=O)[C@@H](NC(=O)[C@H](CC(N)=O)NC(=O)[C@@H](NC(=O)[C@H](CCC(N)=O)NC(=O)[C@H](CC(=O)O)NC(=O)[C@H](CC(C)C)NC(=O)[C@@H](N)CO)[C@@H](C)CC)C(C)C)[C@@H](C)O)C(=O)N[C@@H](CCCCN)C(=O)N[C@@H](CCCCN)C(=O)N[C@@H](CC(C)C)C(=O)N[C@@H](CCC(=O)O)C(=O)N[C@@H](CCC(=O)O)C(=O)N[C@H](C(=O)N[C@@H](Cc1ccc(O)cc1)C(=O)N[C@H](C(=O)N[C@@H](CC(=O)O)C(=O)N[C@@H](CC(C)C)C(=O)N[C@@H](CCCCN)C(=O)N[C@@H](CCC(=O)O)C(=O)N[C@@H](CC(C)C)C(=O)O)[C@@H](C)CC)[C@@H](C)O,HCoV-OC43,"viral infection, inhibitor, immunostaining",HCT-8,2 days,IC50,1.31 µM
NC1=NC2(CCCCC2)N(c2ccc(OCc3cn(CCCCOc4ccc5ccc(=O)oc5c4)nn3)cc2)C(N)=N1,Mycobacterium bovis BCG,,"resistant, thyA W98R",,MIC50,3.2 µM
O=c1c2ccccc2[nH]c(=S)n1Cc1cccnc1,Mycobacterium tuberculosis,intracellular growth,"THP-1 macrophages, H37Rv-GFP",,IC80,> 30 µM
Cc1cc(=O)oc2cc(OCCCCn3cc(COc4ccc(N5C(N)=NC(N)=NC56CCCCC6)cc4)nn3)ccc12,Mycobacterium bovis,,"BCG Tac^r2.3, fbiA L109P missense",TA-C-resistant F420 mutant,MIC50,3.2 µM
CC[C@H](C)[C@H](NC(=O)[C@H](C)NC(=O)[C@H](CCC(=O)O)NC(=O)[C@H](CCC(=O)O)NC(=O)[C@H](CC(C)C)NC(=O)[C@H](CCCCN)NC(=O)[C@H](CCCCN)NC(=O)[C@H](CCSC)NC(=O)[C@H](CCC(=O)O)NC(=O)[C@H](Cc1ccc(O)cc1)NC(=O)[C@H](CCC(=O)O)NC(=O)[C@H](CC(C)C)NC(=O)[C@H](CC(=O)O)NC(=O)[C@H](CC(C)C)NC(=O)[C@H](Cc1ccccc1)NC(=O)[C@H](Cc1ccc(O)cc1)NC(=O)[C@@H](NC(=O)[C@H](CC(N)=O)NC(=O)[C@@H](NC(=O)[C@H](CCC(N)=O)NC(=O)[C@H](CC(=O)O)NC(=O)[C@H](CC(C)C)NC(=O)[C@@H](N)CO)[C@@H](C)CC)C(C)C)C(=O)N[C@@H](CCCCN)C(=O)N[C@@H](CCCCN)C(=O)N[C@@H](CC(C)C)C(=O)N[C@@H](CCC(=O)O)C(=O)N[C@@H](CCC(=O)O)C(=O)N[C@@H](CO)C(=O)N[C@@H](Cc1ccc(O)cc1)C(=O)N[C@H](C(=O)N[C@@H](CC(=O)O)C(=O)N[C@@H](CC(C)C)C(=O)N[C@@H](CCCCN)C(=O)N[C@@H](CCC(=O)O)C(=O)N[C@@H](CC(C)C)C(=O)O)[C@@H](C)CC,HCoV-OC43,"viral infection, inhibitor, immunostaining",HCT-8,2 days,IC50,0.312 µM
CN1CC[C@]23c4c5ccc(O)c4O[C@H]2c2ncc(-c4ccc(Cl)cc4)cc2C[C@@]3(OCCCc2ccccc2)[C@H]1C5,,antinociception,"CD-1 mouse, chemotherapy-induced neuropathy","sc, day 1",A50,0.83 mg/kg
C[C@H](CS)C(=O)N[C@H](Cc1c[nH]c2ccccc12)C(=O)O,Enterobacter aerogenes,,IMP-1 producing,"25 µM, together with: meropenem",MIC of meropenem,0.5 µg/mL
COc1ccc(-c2ccc(C(C)n3ccnc3)cc2)cc1 (stereo not shown),Mycobacterium bovis,,BCG DSM 43990,,Kd to MIC50 ratio,2 to 3
O=C(O)C(=O)CC(=O)C1(Cc2ccc(Cl)cc2)CCN(Cc2ccccc2)CC1,Heartland virus,viral replication,,,concentration suppressing replication,> 50 µM
CC[C@H](C)[C@H](NC(=O)[C@H](C)NC(=O)[C@H](CCC(=O)O)NC(=O)[C@H](CCC(=O)O)NC(=O)[C@H](CC(C)C)NC(=O)[C@H](CCCCN)NC(=O)[C@H](CCCCN)NC(=O)[C@H](CCSC)NC(=O)[C@H](CCC(=O)O)NC(=O)[C@H](Cc1ccc(O)cc1)NC(=O)[C@H](CCC(=O)O)NC(=O)[C@H](CC(C)C)NC(=O)[C@H](CC(=O)O)NC(=O)[C@H](CC(C)C)NC(=O)[C@H](Cc1ccccc1)NC(=O)[C@@H](NC(=O)[C@@H](NC(=O)[C@H](CC(N)=O)NC(=O)[C@@H](NC(=O)[C@H](CCC(N)=O)NC(=O)[C@H](CC(=O)O)NC(=O)[C@H](CC(C)C)NC(=O)[C@@H](N)CO)[C@@H](C)CC)C(C)C)[C@@H](C)O)C(=O)N[C@@H](CCCCN)C(=O)N[C@@H](CCCCN)C(=O)N[C@@H](CC(C)C)C(=O)N[C@@H](CCC(=O)O)C(=O)N[C@@H](CCC(=O)O)C(=O)N[C@@H](CO)C(=O)N[C@@H](Cc1ccc(O)cc1)C(=O)N[C@H](C(=O)N[C@@H](CC(=O)O)C(=O)N[C@@H](CC(C)C)C(=O)N[C@@H](CCCCN)C(=O)N[C@@H](CCC(=O)O)C(=O)N[C@@H](CC(C)C)C(=O)O)[C@@H](C)CC,HCoV-OC43,"viral infection, inhibitor, immunostaining",HCT-8,2 days,IC50,0.508 µM
O=C1C(Cl)=C(Cl)C(=O)c2ccccc21,porcine epidemic diarrhea virus,viral replication,Vero,16 h,EC50,38.5 µM
CC[C@H](C)[C@H](NC(=O)[C@H](C)NC(=O)[C@H](CCC(=O)O)NC(=O)[C@H](CCC(=O)O)NC(=O)[C@H](CC(C)C)NC(=O)[C@H](CCCCN)NC(=O)[C@H](CCCCN)NC(=O)[C@H](CCSC)NC(=O)[C@H](CCC(=O)O)NC(=O)[C@H](Cc1ccc(O)cc1)NC(=O)[C@H](CCC(=O)O)NC(=O)[C@H](CC(C)C)NC(=O)[C@H](CC(=O)O)NC(=O)[C@H](CC(C)C)NC(=O)[C@H](Cc1ccccc1)NC(=O)[C@H](Cc1ccc(O)cc1)NC(=O)[C@@H](NC(=O)[C@H](CC(N)=O)NC(=O)[C@@H](NC(=O)[C@H](CCC(N)=O)NC(=O)[C@H](CC(=O)O)NC(=O)[C@H](CC(C)C)NC(=O)[C@@H](N)CO)[C@@H](C)CC)C(C)C)C(=O)N[C@@H](CCCCN)C(=O)N[C@@H](CCCCN)C(=O)N[C@@H](CC(C)C)C(=O)N[C@@H](CCC(=O)O)C(=O)N[C@@H](CCC(=O)O)C(=O)N[C@@H](C)C(=O)N[C@@H](Cc1ccc(O)cc1)C(=O)N[C@H](C(=O)N[C@@H](CC(=O)O)C(=O)N[C@@H](CC(C)C)C(=O)N[C@@H](CCCCN)C(=O)N[C@@H](CCC(=O)O)C(=O)N[C@@H](CC(C)C)C(=O)O)[C@@H](C)CC,HCoV-OC43,"viral infection, inhibitor, immunostaining",HCT-8,"2 days, dual mutations",IC50,0.298 µM
NC[C@@H](NC[C@@H]1CCCN1C[C@@H](CO)NC[C@@H](NCCC1CC2CCC1C2)c1ccccc1)c1ccccc1 (stereo partly shown),Acinetobacter baumannii,bacterial growth,,"16 µM, fold shift of IC50, together with: amikacin",potentiation of amikacin,3.3 fold
CC[C@H](C)[C@H](NC(=O)[C@H](C)NC(=O)[C@H](CCC(=O)O)NC(=O)[C@H](CCC(=O)O)NC(=O)[C@H](CC(C)C)NC(=O)[C@H](CCCCN)NC(=O)[C@H](CCCCN)NC(=O)[C@H](CCSC)NC(=O)[C@H](CCC(=O)O)NC(=O)[C@H](Cc1ccc(O)cc1)NC(=O)[C@H](CCC(=O)O)NC(=O)[C@H](CC(C)C)NC(=O)[C@H](CC(=O)O)NC(=O)[C@H](CC(C)C)NC(=O)[C@H](Cc1ccccc1)NC(=O)[C@H](Cc1ccccc1)NC(=O)[C@@H](NC(=O)[C@H](CC(N)=O)NC(=O)[C@@H](NC(=O)[C@H](CCC(N)=O)NC(=O)[C@H](CC(=O)O)NC(=O)[C@H](CC(C)C)NC(=O)[C@@H](N)CO)[C@@H](C)CC)C(C)C)C(=O)N[C@@H](CCCCN)C(=O)N[C@@H](CCCCN)C(=O)N[C@@H](CC(C)C)C(=O)N[C@@H](CCC(=O)O)C(=O)N[C@@H](CCC(=O)O)C(=O)N[C@@H](C)C(=O)N[C@@H](Cc1ccc(O)cc1)C(=O)N[C@H](C(=O)N[C@@H](CC(=O)O)C(=O)N[C@@H](CC(C)C)C(=O)N[C@@H](CCCCN)C(=O)N[C@@H](CCC(=O)O)C(=O)N[C@@H](CC(C)C)C(=O)O)[C@@H](C)CC,HCoV-OC43,"viral infection, inhibitor, immunostaining",HCT-8,"2 days, dual mutations",IC50,0.488 µM
NC1=NC2(CCCCC2)N(c2ccc(OCc3cn(CCCCOc4ccc(CCC(=O)O)c(O)c4)nn3)cc2)C(N)=N1,Mycobacterium bovis,,"BCG Tac^r7.2, thyA W133S missense",TA-C-resistant thyA mutant,MIC50,> 25 µM

# Repeated from above:
SMILES,target or system,test,test system,conditions,endpoint,result
NC[C@@H](NC[C@@H]1CCCN1C[C@@H](CO)NC[C@@H](NCCC1CC2CCC1C2)c1ccccc1)c1ccccc1 (stereo partly shown),Acinetobacter baumannii,bacterial growth,,"16 µM, fold shift of IC50, together with: amikacin",potentiation of amikacin,3.3 fold
NC1=NC2(CCCCC2)N(c2ccc(OCc3cn(CCCCOc4ccc5ccc(=O)oc5c4)nn3)cc2)C(N)=N1,Mycobacterium bovis BCG,,"resistant, thyA W98R",,MIC50,3.2 µM
Cc1cc(=O)oc2cc(OCCCCn3cc(COc4ccc(N5C(N)=NC(N)=NC56CCCCC6)cc4)nn3)ccc12,Mycobacterium bovis,,"BCG Tac^r2.3, fbiA L109P missense",TA-C-resistant F420 mutant,MIC50,3.2 µM
